Results gathered from unrelated publications.
Every numbered part comes from another study and shows a few of its results, in no order.
Chain of UniProt Q6ZN16 (whole entry, looked up): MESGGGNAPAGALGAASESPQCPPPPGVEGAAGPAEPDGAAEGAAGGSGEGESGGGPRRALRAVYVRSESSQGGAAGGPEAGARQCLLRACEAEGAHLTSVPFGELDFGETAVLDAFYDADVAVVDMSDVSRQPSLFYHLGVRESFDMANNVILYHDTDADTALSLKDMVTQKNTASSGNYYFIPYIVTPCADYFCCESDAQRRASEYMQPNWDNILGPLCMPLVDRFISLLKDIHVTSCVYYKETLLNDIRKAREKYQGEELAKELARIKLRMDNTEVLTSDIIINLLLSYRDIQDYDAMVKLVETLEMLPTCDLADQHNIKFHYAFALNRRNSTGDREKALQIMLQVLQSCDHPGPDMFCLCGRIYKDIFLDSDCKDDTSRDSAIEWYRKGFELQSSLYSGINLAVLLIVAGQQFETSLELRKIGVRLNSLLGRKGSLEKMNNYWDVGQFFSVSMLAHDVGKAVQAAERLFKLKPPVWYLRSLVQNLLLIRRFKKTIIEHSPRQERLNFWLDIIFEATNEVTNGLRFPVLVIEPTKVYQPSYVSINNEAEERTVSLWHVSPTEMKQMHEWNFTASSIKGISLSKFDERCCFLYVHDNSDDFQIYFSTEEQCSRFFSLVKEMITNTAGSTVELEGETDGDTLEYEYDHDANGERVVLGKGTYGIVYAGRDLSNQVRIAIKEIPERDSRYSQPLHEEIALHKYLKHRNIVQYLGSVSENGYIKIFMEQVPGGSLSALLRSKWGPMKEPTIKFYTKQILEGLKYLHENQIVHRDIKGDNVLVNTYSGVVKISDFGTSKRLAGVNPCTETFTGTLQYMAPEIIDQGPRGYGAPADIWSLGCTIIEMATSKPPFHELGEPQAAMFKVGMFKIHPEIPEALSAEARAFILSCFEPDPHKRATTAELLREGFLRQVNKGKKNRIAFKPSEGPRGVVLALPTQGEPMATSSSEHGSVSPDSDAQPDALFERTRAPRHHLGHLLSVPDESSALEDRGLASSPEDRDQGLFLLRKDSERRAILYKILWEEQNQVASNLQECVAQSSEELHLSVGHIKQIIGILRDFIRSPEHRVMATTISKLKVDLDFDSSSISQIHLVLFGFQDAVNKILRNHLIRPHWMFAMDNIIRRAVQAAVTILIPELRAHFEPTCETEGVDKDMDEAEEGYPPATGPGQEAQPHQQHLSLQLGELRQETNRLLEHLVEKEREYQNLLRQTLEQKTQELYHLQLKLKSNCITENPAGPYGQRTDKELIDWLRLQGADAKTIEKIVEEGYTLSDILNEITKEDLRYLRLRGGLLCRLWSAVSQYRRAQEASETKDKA
Chain of UniProt Q56UN5 (whole entry, looked up): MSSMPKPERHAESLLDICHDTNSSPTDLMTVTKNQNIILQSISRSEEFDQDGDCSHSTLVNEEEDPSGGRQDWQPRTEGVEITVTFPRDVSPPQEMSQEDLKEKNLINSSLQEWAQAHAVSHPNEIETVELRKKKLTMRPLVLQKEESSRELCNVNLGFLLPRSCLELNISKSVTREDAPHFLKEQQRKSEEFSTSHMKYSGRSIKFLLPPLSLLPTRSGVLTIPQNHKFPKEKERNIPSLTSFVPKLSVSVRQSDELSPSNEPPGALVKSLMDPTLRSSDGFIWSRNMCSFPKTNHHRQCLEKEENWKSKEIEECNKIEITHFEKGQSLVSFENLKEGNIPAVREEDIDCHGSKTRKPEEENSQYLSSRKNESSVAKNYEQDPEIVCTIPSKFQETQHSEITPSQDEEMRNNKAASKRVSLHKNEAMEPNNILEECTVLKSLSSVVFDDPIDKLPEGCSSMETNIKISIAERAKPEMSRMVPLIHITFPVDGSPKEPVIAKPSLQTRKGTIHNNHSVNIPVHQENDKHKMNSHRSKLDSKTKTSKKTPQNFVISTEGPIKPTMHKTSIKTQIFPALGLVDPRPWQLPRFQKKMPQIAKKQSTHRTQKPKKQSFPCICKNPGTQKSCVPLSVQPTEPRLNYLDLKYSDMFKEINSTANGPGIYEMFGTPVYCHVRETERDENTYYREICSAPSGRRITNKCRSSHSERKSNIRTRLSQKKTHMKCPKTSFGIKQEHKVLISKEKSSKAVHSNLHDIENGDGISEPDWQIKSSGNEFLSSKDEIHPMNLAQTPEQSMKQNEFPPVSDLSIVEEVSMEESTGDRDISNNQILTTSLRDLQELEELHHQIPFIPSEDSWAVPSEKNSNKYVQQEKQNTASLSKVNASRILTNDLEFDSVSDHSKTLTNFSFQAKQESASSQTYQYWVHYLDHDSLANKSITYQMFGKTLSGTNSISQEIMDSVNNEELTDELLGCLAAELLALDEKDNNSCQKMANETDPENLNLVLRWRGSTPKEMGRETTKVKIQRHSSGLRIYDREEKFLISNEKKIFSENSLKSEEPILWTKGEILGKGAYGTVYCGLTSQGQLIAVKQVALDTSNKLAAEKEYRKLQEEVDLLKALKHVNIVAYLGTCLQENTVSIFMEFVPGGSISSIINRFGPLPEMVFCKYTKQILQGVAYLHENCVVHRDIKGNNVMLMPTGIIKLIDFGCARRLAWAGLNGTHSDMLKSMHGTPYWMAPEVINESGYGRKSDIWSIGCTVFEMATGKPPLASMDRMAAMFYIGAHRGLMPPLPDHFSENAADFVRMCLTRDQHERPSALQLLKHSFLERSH
Chain of UniProt Q8N4C8 (whole entry, looked up): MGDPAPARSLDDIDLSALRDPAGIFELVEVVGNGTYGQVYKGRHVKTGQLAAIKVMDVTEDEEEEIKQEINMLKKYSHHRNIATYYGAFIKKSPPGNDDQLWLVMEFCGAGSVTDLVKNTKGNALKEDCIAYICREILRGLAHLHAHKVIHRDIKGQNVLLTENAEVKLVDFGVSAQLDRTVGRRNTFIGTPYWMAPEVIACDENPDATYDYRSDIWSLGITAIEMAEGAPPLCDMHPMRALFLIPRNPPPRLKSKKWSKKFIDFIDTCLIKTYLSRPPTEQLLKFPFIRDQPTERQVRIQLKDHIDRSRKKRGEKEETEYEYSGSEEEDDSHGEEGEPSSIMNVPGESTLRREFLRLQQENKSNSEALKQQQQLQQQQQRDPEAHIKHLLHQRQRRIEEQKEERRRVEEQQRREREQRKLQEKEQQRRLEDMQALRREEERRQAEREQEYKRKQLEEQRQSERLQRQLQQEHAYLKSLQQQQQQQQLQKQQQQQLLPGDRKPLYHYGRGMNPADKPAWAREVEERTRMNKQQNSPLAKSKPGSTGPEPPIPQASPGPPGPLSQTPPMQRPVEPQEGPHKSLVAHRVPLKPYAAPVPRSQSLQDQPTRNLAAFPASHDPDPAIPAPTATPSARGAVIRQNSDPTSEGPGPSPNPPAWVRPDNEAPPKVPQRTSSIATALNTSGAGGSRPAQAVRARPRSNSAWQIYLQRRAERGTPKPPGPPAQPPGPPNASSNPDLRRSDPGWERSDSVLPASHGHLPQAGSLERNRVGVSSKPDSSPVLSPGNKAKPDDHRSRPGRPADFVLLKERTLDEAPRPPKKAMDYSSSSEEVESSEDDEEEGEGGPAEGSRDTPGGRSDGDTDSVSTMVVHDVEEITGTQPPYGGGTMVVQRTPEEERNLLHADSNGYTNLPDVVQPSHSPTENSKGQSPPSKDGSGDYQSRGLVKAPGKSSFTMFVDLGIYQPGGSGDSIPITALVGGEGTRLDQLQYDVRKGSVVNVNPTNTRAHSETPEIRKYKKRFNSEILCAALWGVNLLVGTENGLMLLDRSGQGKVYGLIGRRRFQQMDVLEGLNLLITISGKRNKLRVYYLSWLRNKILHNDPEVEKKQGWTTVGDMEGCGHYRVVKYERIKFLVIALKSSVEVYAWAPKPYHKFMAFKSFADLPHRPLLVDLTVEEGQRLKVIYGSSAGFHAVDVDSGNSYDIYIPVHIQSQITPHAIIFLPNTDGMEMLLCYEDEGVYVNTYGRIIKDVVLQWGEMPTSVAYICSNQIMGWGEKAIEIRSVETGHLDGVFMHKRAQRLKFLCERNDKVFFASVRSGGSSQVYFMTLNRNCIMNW

Set 1
Cell line: A-375
Concentration: 100 µM
Time: 36 h
For `CCCCC[C@H](O)/C=C/[C@H]1[C@H](O)CC(=O)[C@@H]1CCCCCCC(=O)O`, the viability was 118%.
`Cc1nc(-c2ccc(OCC(C)C)c(C#N)c2)sc1C(=O)O` has a viability of 99.2%.
The viability of `CC(=O)Nc1ccc(CC(=O)O)cc1` is reported as 111%.
With `CC[C@H](C)C[C@H](C)CCCCCCCCC(=O)N[C@H]1C[C@@H](O)[C@@H](NCCN)NC(=O)[C@@H]2[C@@H](O)CCN2C(=O)[C@H]([C@H](O)CCN)NC(=O)[C@H]([C@H](O)[C@@H](O)c2ccc(O)cc2)NC(=O)[C@@H]2C[C@@H](O)CN2C(=O)[C@H]([C@@H](C)O)NC1=O` the viability was 12.8%.
`N[C@@H](Cc1ccc(O)c(O)c1)C(=O)O` gave a viability of 98.9%.
`O=C(NC[C@H]1CN(c2ccc(N3CCOCC3=O)cc2)C(=O)O1)c1ccc(Cl)s1` gave a viability of 93.7%.
`CC(=O)O[C@H]1CC[C@@]2(C)C(=CC[C@@H]3[C@@H]2CC[C@]2(C)C(c4cccnc4)=CC[C@@H]32)C1` has a viability of 1.57%.

Set 2
SMILES: CCCCN(CCCC)C(=O)CN1C[C@H](c2cc(OC)c3c(c2)OCO3)[C@@H](C(=O)O)[C@@H]1CC(C)(C)CCC
Effect on: cell-free assay
Technique: competition with immobilised ligand
Concentration: 1 µM
For CDK8 (Homo sapiens, UniProt P49336): remaining binding read 100%.
For PIK3CA (Homo sapiens, UniProt P42336, H1047Y): remaining binding read 100%.
For MINK1 (Homo sapiens, UniProt Q8N4C8): remaining binding read 88.4%.
For MAP3K19 (Homo sapiens, UniProt Q56UN5): remaining binding read 90.3%.
The remaining binding was 46.4% (FLT3 (Homo sapiens, UniProt P36888, D835V/ITD)).
For STK38L (Homo sapiens, UniProt Q9Y2H1): remaining binding read 100%.
For MAP3K15 (Homo sapiens, UniProt Q6ZN16): remaining binding read 100%.

Set 3
Target: Serine/threonine-protein kinase PAK 5 (PAK5, Homo sapiens, UniProt Q9P286)
Chain of UniProt Q9P286 (whole entry, looked up): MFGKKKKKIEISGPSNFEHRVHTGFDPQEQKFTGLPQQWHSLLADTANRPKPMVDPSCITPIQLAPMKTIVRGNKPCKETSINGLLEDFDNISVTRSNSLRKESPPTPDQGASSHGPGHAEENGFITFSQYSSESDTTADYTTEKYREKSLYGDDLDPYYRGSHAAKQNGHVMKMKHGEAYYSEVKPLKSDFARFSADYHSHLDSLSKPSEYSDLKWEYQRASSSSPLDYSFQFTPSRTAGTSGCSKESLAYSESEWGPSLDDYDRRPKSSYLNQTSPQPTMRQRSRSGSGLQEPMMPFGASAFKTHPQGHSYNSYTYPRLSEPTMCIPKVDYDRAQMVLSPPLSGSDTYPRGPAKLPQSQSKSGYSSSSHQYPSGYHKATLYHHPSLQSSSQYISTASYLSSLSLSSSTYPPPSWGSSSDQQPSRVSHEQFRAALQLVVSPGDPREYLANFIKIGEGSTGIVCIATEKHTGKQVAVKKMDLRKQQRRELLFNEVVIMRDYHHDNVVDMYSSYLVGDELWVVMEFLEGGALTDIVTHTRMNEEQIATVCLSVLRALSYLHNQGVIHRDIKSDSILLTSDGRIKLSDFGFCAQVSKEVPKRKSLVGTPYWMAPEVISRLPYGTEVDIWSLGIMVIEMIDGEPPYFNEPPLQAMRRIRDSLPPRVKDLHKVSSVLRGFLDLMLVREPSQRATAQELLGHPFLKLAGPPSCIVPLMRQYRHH
Effect on: enzyme activity
Mode: inhibitor
Concentration: 0.5 µM
Baseline: control
The remaining activity of `COc1ccc(OC)c2c(=S)c3ccccc3[nH]c12` is reported as 82.9%.
With `O=S(=O)(c1cccc2cnccc12)N1CCCNCC1` the remaining activity was 73.1%.
For `O=C(CCCc1ccc(-c2ccccc2F)cc1)Nc1ccc(O)cc1`, the remaining activity was 90.3%.
For `Cn1c2ccccc2c2c3c(c4c5ccccc5n(CCC#N)c4c21)CNC3=O`, the remaining activity was 37.1%.
For `O=C(Nc1cccc(Nc2cc(Nc3cccc(C(F)(F)F)c3)ncn2)c1)C1CC1`, the remaining activity was 97.5%.
With `Nc1ncnc2n[nH]c(Nc3ccc(F)cc3)c12` the remaining activity was 116%.
`OCC(O)CCON=C1C(c2c(O)[nH]c3ccccc23)=Nc2ccccc21` (centres unmarked) gave a remaining activity of 81%.
With `Cc1cccc(-c2[nH]c(C(C)(C)C)nc2-c2ccc3c(c2)OCO3)n1` the remaining activity was 92.7%.
The remaining activity of `O=C1NC(=O)C(c2cn(CCCO)c3ncccc23)=C1c1cnccn1` is reported as 88.2%.
`C#Cc1cccc(Nc2ncnc3cc(OCCOC)c(OCCOC)cc23)c1` gave a remaining activity of 97.3%.
`Nc1[nH]nc2nc3ccccc3nc12` has a remaining activity of 98.4%.
With `CCOC(=O)c1c(C)[nH]c(/C=C2\C(=O)Nc3ccccc32)c1C` the remaining activity was 83.9%.
The remaining activity of `Nc1ccc2ncnc(NCCc3ccc(Oc4ccccc4)cc3)c2c1` is reported as 106%.

Set 4
Species: mouse
Medium: microsomes or S9
Concentration: 2 µM
Time: 0.5 h
`CCOC(=O)N1CCN(c2ncc3c(n2)CC(c2cc(OC)c(OC)c(OC)c2)CC3=O)CC1` (centres unmarked) gave a remaining compound of 35.6%.
`CCOC(=O)C1C2CN(c3ccc(C(=O)NCCNC(=O)N4CCN(C)CC4)cn3)CC21` (centres unmarked) gave a remaining compound of 93.1%.
The remaining compound of `CN1CCN(Cc2ccc(-c3cn(C(=O)OC(C)(C)C)nc3C3CCCN(C(=O)OC(C)(C)C)C3)cc2)CC1` (centres unmarked) is reported as 5.32%.
The remaining compound of `C[C@H]1CN(c2c(F)cc3c(=O)c(C(=O)O)cn4c3c2OC[C@@H]4C)C[C@H]1N` is reported as 84.3%.
`CCC(Oc1ccccc1C)C(=O)Nc1ccccc1C(=O)NC` (centres unmarked) has a remaining compound of 2.66%.

For quick reference, copied from above (set 3):
The remaining activity of `COc1ccc(OC)c2c(=S)c3ccccc3[nH]c12` is reported as 82.9%.
The remaining activity of `O=C1NC(=O)C(c2cn(CCCO)c3ncccc23)=C1c1cnccn1` is reported as 88.2%.
